Measured values from different studies.
Compare with care: the assays were run in different laboratories.
Sequence of UniProt P59537 (whole entry, looked up): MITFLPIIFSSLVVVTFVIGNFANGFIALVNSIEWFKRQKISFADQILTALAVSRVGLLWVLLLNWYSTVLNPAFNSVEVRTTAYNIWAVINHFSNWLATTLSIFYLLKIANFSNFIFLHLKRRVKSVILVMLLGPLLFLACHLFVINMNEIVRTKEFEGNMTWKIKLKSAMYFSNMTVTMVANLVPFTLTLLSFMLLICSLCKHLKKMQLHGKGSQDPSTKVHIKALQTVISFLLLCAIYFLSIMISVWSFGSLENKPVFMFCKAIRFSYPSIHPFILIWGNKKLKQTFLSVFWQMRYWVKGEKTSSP

CC(C)C[C@H](NC(=O)[C@@H](NC(=O)[C@H](CCONC(=N)N)NC(=O)OCc1ccccc1)C1CCCCC1)[C@@H](O)CC(=O)NCCc1ccccc1
EC50 (Plasmodium falciparum; parasite growth, LDH; parental resistant): 380 nM

CC[C@H](C)[C@@H]1NC(=O)[C@H](Cc2c[nH]c3ccccc23)NC(=O)[C@H](Cc2ccccc2)NC(=O)[C@H](Cc2ccccc2)NC(=O)[C@@H]2CCCN2C(=O)[C@H](CCSC)NC(=O)[C@H](CC(C)C)NC(=O)[C@H](CC[S+](C)[O-])NC1=O (stereo partly drawn)
EC50 (TAS2R43 (Homo sapiens, UniProt P59537); calcium signal, agonist): 2920 nM

CC[C@H](C)[C@H](NC(=O)[C@H](CC(C)C)NC(=O)[C@H](CCCNC(=N)N)NC(=O)CCNC(=O)CCNC(=O)[C@@H]1CSSC[C@H](NC(=O)[C@H](Cc2ccc(O)cc2)NC(=O)[C@@H]2CCCN2C(=O)CCN)C(=O)N[C@@H](C(C)C)C(=O)N[C@@H](Cc2ccc(O)cc2)C(=O)N[C@@H](CCCNC(=N)N)C(=O)NCCC(=O)N[C@@H](CO)C(=O)N[C@@H](Cc2c[nH]c3ccccc23)C(=O)N[C@@H](CO)C(=O)N1)C(=O)N[C@@H](CCC(=O)O)C(=O)N[C@@H](CC(=O)O)C(=O)N[C@H](C(=O)N[C@H]1CSSC[C@@H](C(=O)N[C@@H](CC(C)C)C(=O)N[C@@H](Cc2c[nH]c3ccccc23)C(=O)N[C@@H](CCC(=O)O)C(=O)N[C@@H](CC(=O)O)C(=O)N[C@@H](CC(=O)O)C(N)=O)NC(=O)CNC(=O)[C@H](Cc2c[nH]c3ccccc23)NC(=O)[C@H](CCCNC(=N)N)NC(=O)[C@@H]2CCCN2C(=O)[C@H](CC(C)C)NC1=O)[C@@H](C)CC
potency loss with BSA (EphA4; ephrin-A5 binding, inhibitor; together with: BSA 20 mg/mL; relative to: without BSA): ~8 fold

O=C(O)COc1ccc(Br)cc1C=NNC(=O)Cc1ccccc1 (mixture of isomers)
survival (male mice, pilocarpine-induced seizures; oral, 20 mg/kg, 24 h, dosed 30 min before pilocarpine, together with: pilocarpine 300 mg/kg i.p.): 100%

C=CCCCC(C)(NC(=O)[C@H](Cc1c[nH]cn1)NC(=O)[C@@H](N)CC(=O)O)C(=O)N[C@@H](CC(N)=O)C(=O)N1CCC[C@H]1C(=O)N[C@@H](CCC(N)=O)C(=O)N[C@H](C(=O)N[C@@H](CCCNC(=N)N)C(N)=O)[C@@H](C)CC (stereo partly drawn)
acute toxicity (Kunming mouse; subcutaneous, 0.5 to 62.5 mg/kg, 14 days): not toxic

N=C(N)N[C@@H]1C[C@@H](C(=O)N[C@@H](Cc2ccc(O)cc2)C(N)=O)N(C(=O)CN(CCNC(=O)[C@H](CCCCNC(=O)c2cnccn2)NC(=O)[C@H](CCCCNC(=O)[C@H]2C[C@@H](N)CN2C(=O)CN(CCNC(=O)CN(CCN)C(=O)Cn2cnc3c(=O)[nH]c(N)nc32)C(=O)Cn2cnc3c(=O)[nH]c(N)nc32)NC(=O)[C@H]2C[C@@H](N)CN2C(=O)CN(CCNC(=O)CN(CCN)C(=O)Cn2cnc3c(=O)[nH]c(N)nc32)C(=O)Cn2cnc3c(=O)[nH]c(N)nc32)C(=O)Cn2cnc3c(=O)[nH]c(N)nc32)C1
CC50 (HEK-293T; MTT; 48 h after transfection): 135 µM

Excerpt of the above:
O=C(O)COc1ccc(Br)cc1C=NNC(=O)Cc1ccccc1 (mixture of isomers)
survival (male mice, pilocarpine-induced seizures; oral, 20 mg/kg, 24 h, dosed 30 min before pilocarpine, together with: pilocarpine 300 mg/kg i.p.): 100%
